Published values of several laboratories.
Each numbered part is a random draw from the data of one study; scales do not carry over between parts.

Series 1
Target: Histone acetyltransferase KAT6A, winged helix 2, GST fusion (KAT6A, Homo sapiens, UniProt Q92794, residues 85-181)
Technique: protein binding microarray
Molecule type: double-stranded DNA, one strand shown
Medium: in vitro
Concentration: not given
Notes: 8-mer, flanks averaged, mean of 2 arrays, mostly near background
Relative to: not given
Direction: higher = stronger binding
Target sequence (chain): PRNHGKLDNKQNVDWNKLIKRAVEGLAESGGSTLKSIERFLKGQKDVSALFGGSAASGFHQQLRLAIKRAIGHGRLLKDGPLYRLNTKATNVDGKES
Sequence	E-score
GACCCTGA	-0.139
GGTTCGCA	0.16
TCCGGTAA	-0.0269
CAGGATTC	-0.0102
GGTCGGAA	0.162
GGTCGAGA	-0.0609
AAAGCTGT	0.0317
AGGTGGGA	0.0892
CCGGAGTC	0.0308
AAGCATCC	-0.105
AGATCGCC	0.0915
AGAATCGG	0.0279
ACGACCAT	-0.17
GGCTGGTA	-0.0502
AGTGGCTC	-0.11
AGACTCAC	-0.0283
TCCGAGGA	-0.0453
AACTGTGT	-0.127
CCGTGACA	-0.139
GCGTTAAC	0.00856
TCCACTAA	-0.0236
ACCTGTAC	-0.184
GAAACCCC	0.0627
AAATCCTA	0.0246

Series 2
Target: RNA binding protein fox-1 homolog 2, RRM domain, GST-SBP tag (RBFOX2, Homo sapiens, UniProt O43251-10, residues 100-194)
Technique: RNA Bind-n-Seq
Molecule type: RNA
Medium: in vitro
Concentration: 365 nM
Notes: natural RNA segment, single round, ends assumed
Relative to: no-protein control
Direction: higher = stronger binding
Shared flanks, not repeated: GGGAGUUCUACAGUCCGACGAUC … UGGAAUUCUCGGGUGCCAA
Target sequence (chain): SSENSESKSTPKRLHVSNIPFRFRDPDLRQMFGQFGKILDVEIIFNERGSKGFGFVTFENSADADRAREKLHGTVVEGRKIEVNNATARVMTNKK
Sequence	RBNS enrichment (R)
UCUCGCACAUUUCCACAGCACCUGCUAAGUUUGUAUUUAAUGGUUUUUGUUUUUGUUUUUGUUUGUUUCUUGAAAAUGAGAGAAGAGCCGGAGAGAUGAUUUUUAUUAAU	2.29
CACAUACAUUUUUAAAAUCGAGUAUAGAAUUCACCAGGGUUGAAAAUGACUGGCAGACAAUAUAUGCAUGGACCUUGAUAUGGGUGGAUAGAUUAAGGUUGAACCUUAGA	5.34
GCUCAGACCAUUAUUUAUUUCUUGAGUGUAUAUAAGUAUAAAGACAAAUCUAUGGUUAGUUUUUACUUUAAGAUUAACCGAUUUCAAGAUUUACAAAAAAAAACAACAAA	0.569
UCCUGCAUCUUCUUACCCUUUACAAAGUCUGACCCGGCCAUUUCCAGCAGACCUGUGAGCCAGCCAGGGACCGGACUAGAAGCCAUGUUGCAUAUUGGGGUUUUUGUUUG	0.532
GUUCUGGGUGGGGAUAAGGAUGGGAGGAGAAAGGUUGAGACCUUGGUCUGGCUGUACUGGCAACGCGGUGCUGGGCCCAUGUCUCAUACCUUGCCCUCAGCCUAUCCCUG	0.325
CUGUUAAAUUGCAGUACGUGUUAUAGACCACUCAGAUCAAGCCUCUACUCCCUCUGAGAGUUUUCAACAUCAGUUGAUUGAGCUUCAGGCUUUCCAACGUUAUCCCUGUA	0.315
UGGUACCCUGGCUGCAGCCCAGCGGGGGCUGGAGAGGCAGGGGAGGGCAGUGGUCCUUCCAAAUAGAAGUCCUGGGGCCUGGCCAGGCCAGGGUUUGGGCCUAAUGGUUU	0.521
UACUGGACAUGUCAGCAUCAACCCUCUCAAAAUAGCUUGGUCACUUUAUGAAGGGGCGUUUUAAAGUUGUUGUUUAGCAGUGACAUUUAAUAUGGUCCAAUUGCUUUUCU	0.385

Series 3
Target: Ras GTPase-activating protein-binding protein 1, RRM domain (G3BP1, Homo sapiens, UniProt Q13283)
Sequence of UniProt Q13283 (whole entry, looked up): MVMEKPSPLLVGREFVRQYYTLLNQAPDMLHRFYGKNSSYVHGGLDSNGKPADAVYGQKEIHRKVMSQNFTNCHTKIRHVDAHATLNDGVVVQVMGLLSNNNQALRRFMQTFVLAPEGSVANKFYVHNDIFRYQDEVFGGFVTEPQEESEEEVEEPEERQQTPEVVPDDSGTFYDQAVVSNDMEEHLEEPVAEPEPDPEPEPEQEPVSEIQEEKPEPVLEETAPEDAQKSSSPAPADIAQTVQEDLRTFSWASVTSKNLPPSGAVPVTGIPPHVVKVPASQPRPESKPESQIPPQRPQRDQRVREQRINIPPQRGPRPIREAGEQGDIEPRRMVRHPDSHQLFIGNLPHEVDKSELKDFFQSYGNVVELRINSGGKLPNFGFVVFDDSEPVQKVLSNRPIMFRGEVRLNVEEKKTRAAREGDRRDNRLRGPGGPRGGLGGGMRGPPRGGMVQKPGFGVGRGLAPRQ
Technique: RNA Bind-n-Seq
Molecule type: RNA
Medium: in vitro
Concentration: 1 µM
Notes: whole 134-nt RNA, ends assumed
Together with: 150 mM KCl
Relative to: input library
Direction: higher = stronger binding
Shared flanks, not repeated: GGGAGUUCUACAGUCCGACGAUC … UGGAAUUCUCGGGUGUCAAGG
Sequence	log2 enrichment
CUGUGCUACACAUCGUAUGUACCGAAUCGGCCCCCCCGGGGCCCCCCCGGCCCCCCCGGGGAAAGUAUUAUGUUACGCCGUUCGGAUCUG	-0.42
AGUCCUGUGCUACACAUCGUAUGUACCGAAUCGGGCCCCCGGGCCCCCGGGCCCCCGGAAAGUAUUAUGUUACGCCGUUCGGAUCUGCAC	-0.746
CCUCAAGUCCUGUGCUACACAUCGUAUGUACCGAAUCGGUGGUGGGGUGGGGAAAGUAUUAUGUUACGCCGUUCGGAUCUGCACUUCCAG	-0.208
AAGUCCUGUGCUACACAUCGUAUGUACCGAAUCGGAAAAAAAGGAAAGGAAAAAGGAAAGUAUUAUGUUACGCCGUUCGGAUCUGCACUU	-0.0647
CCUCAAGUCCUGUGCUACACAUCGUAUGUACCGAAUCGGAAAAAGGAGGAGGAAAGUAUUAUGUUACGCCGUUCGGAUCUGCACUUCCAG	-0.0886
UUGUAUUAAGACAACGCUCCUCGACUUAGAUGCCUUGGCAAGACAUUUGGCUGACUGUAUUCGAAGGUAAAAUUUGAUGUGAAAUUGACA	0.352
UUGGGUCCAGACUGCGCCACAGCCUCUCGGGAGACGUGGGCCCUCGGAACCUUUUUAGUGCCGGACUCCGGGCCGCAGGCAGUCCCGCGG	-0.898
CCUCAAGUCCUGUGCUACACAUCGUAUGUACCGAAUCGGCGGGCGGGGCGGGGAAAGUAUUAUGUUACGCCGUUCGGAUCUGCACUUCCA	-0.154
AAGUCCUGUGCUACACAUCGUAUGUACCGAAUCGGCCCCGGGGCCCCGGGCCCCGGGAAAGUAUUAUGUUACGCCGUUCGGAUCUGCACU	-0.752

Series 4
Target: RING finger protein unkempt homolog, zinc fingers 1-6, GST-SBP tag (UNK, Homo sapiens, UniProt Q9C0B0, residues 30-357)
Sequence of UniProt Q9C0B0 (30-357, looked up): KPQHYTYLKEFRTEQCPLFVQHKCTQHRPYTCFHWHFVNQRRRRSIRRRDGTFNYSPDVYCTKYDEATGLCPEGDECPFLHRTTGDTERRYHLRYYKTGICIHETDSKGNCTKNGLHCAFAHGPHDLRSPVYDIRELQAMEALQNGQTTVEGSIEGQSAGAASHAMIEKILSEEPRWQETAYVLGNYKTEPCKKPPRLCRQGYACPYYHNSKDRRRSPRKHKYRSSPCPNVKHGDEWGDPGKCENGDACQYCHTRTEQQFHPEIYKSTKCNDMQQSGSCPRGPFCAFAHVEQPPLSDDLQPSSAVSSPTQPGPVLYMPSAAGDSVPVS
Technique: RNA Bind-n-Seq
Molecule type: RNA
Medium: in vitro
Concentration: not given
Notes: RNA with constant flanks, human and mouse sites, ends assumed
Relative to: input RNA pool
Direction: higher = stronger binding
Shared flanks, not repeated: GGGAGUUCUACAGUCCGACGAUC … CAACAGAGGAUUGAGCAUCA
Sequence	bound/input enrichment [ratio]
AGAGCAUCAAGGGAACACCCAUCUGUCCAGGAGAAGAAGAAGUCCACCAUCUGGCAGUUCUUUAGUCGCCUCUUCAGCUCCUCAUCUAGCCCCCCUCCGGCCAAACGAUCCUACCCAUCU	0.778
CCGCCGCCGCCGCCGCCUCUCCUUAGUCGCCGCCAUGACGACCGCGUCCACCUCGCAGUCUUACUACUUUGACCGCGAUGAUGUGGCUUUGAAGAACUUUGCCAAAUACUUUCUUCACCA	0.229
AUUCGAAUAAUUGGGUUGUACAACUUAUCUCAUAAUCCCAUUAUUCAUUUGAUAUUCUGUUUUAGAAAAUUUAGGUUAAUCUUAAGAUUUAAUAAAUUUCAAAUCAUGUUAUUAUGCAAA	1.57
GGAACCAUCCUAAUGGAGACACACAAAACUGUUGGGCAGCAGAUGCUGAGCUUCCCCCACCUCCUGCAGACAGUGCUGCACAUCAUCCAGGUAGUCAUCAGCUACUUCCUCAUGCUCAUC	0.303
AGGCCACAAGAUUUUAAAUAUGGGCCUUGGCUUCCUGCACUAGAGAUUACGUCCAUCUAGAUGGGUGCUGCAGGUUUUUGUUUUCUGUUUUUUUGGUUUUUUUUUUUUUUGCAGUGAUAG	2.84
UCAGAAAGAAGCAACUUUGAAUCUGAACUUGAUAAUAAAAGAAGAAAUGAAAAACCCCAGUUGGAUUAGAAAGAACUGGCUUCUUGUGGCUGGGGUGACUUUCAUAGGCGUCCAUCUUGG	0.223
GAAAAACCACAUAAGAGCCAAACCCUGGCCUUUCCAUUUUAAAUAUUUUUAUUCAGUCCCUUCUCUGGUUCUUUUCCUCUUACUCUGAUUUUCCUUUUAAGACAAAAACAAAAAUUUGAG	1.47
GAGAGAGAUACGGAGAGACAGACAGACAGAGAGAGAGACAGAGAGAGAGAUGCUUUCCCAAGAGGAAAUGCAUAUGUACCUUGAUUUAAGCAAAACUGAUAACAGAAAAUUGAACUUAAU	0.277

Excerpt of the above (series 4):
Sequence	bound/input enrichment [ratio]
AGAGCAUCAAGGGAACACCCAUCUGUCCAGGAGAAGAAGAAGUCCACCAUCUGGCAGUUCUUUAGUCGCCUCUUCAGCUCCUCAUCUAGCCCCCCUCCGGCCAAACGAUCCUACCCAUCU	0.778
CCGCCGCCGCCGCCGCCUCUCCUUAGUCGCCGCCAUGACGACCGCGUCCACCUCGCAGUCUUACUACUUUGACCGCGAUGAUGUGGCUUUGAAGAACUUUGCCAAAUACUUUCUUCACCA	0.229
AUUCGAAUAAUUGGGUUGUACAACUUAUCUCAUAAUCCCAUUAUUCAUUUGAUAUUCUGUUUUAGAAAAUUUAGGUUAAUCUUAAGAUUUAAUAAAUUUCAAAUCAUGUUAUUAUGCAAA	1.57
GGAACCAUCCUAAUGGAGACACACAAAACUGUUGGGCAGCAGAUGCUGAGCUUCCCCCACCUCCUGCAGACAGUGCUGCACAUCAUCCAGGUAGUCAUCAGCUACUUCCUCAUGCUCAUC	0.303
AGGCCACAAGAUUUUAAAUAUGGGCCUUGGCUUCCUGCACUAGAGAUUACGUCCAUCUAGAUGGGUGCUGCAGGUUUUUGUUUUCUGUUUUUUUGGUUUUUUUUUUUUUUGCAGUGAUAG	2.84
UCAGAAAGAAGCAACUUUGAAUCUGAACUUGAUAAUAAAAGAAGAAAUGAAAAACCCCAGUUGGAUUAGAAAGAACUGGCUUCUUGUGGCUGGGGUGACUUUCAUAGGCGUCCAUCUUGG	0.223
GAAAAACCACAUAAGAGCCAAACCCUGGCCUUUCCAUUUUAAAUAUUUUUAUUCAGUCCCUUCUCUGGUUCUUUUCCUCUUACUCUGAUUUUCCUUUUAAGACAAAAACAAAAAUUUGAG	1.47
GAGAGAGAUACGGAGAGACAGACAGACAGAGAGAGAGACAGAGAGAGAGAUGCUUUCCCAAGAGGAAAUGCAUAUGUACCUUGAUUUAAGCAAAACUGAUAACAGAAAAUUGAACUUAAU	0.277
